Published values pooled from the literature.
Cell line: MRC5

Structure (SMILES) | read-out | method | time | IC50
F[P-](F)(F)(F)(F)F.O=C(CCC(=O)c1ccccc1)NCCN(CC(=O)Nc1ccc(C#CCN(Cc2ccccn2)Cc2ccccn2)cc1)C(=O)CCc1cn(C[c-]2cccc2)nn1.[C-]#[O+].[C-]#[O+].[C-]#[O+].[Fe+2].[Re+].c1cc[cH-]c1 | cell growth or viability | resazurin | 48 h | 22.8 µM
C=C(C)[C@H]1CC[C@@]2(C)CC[C@]3(C)C[C@H]4[C@@H](C)[C@H](O)C[C@H]4/C(C)=C\C[C@H]3[C@H]12 | cell growth or viability | MTT | 72 h | 11 µM
C[C@]12CC[C@@H]3c4ccc(O)cc4CC[C@H]3[C@@H]1CC[C@@]2(O)c1cn(CC(=O)c2cccc(F)c2)nn1 | cell growth or viability | resazurin | 72 h | > 52.5 µM
CC(C)(C)c1ccc2[c](c1)[Au-]1([Cl])[c]3cc(C(C)(C)C)ccc3-c3cncc-2[n+]31 | cell growth or viability | MTS |  | 4.9 µM
C/C1=C/C[C@H]2[C@@H]3[C@@H]([C@]4(C)CO4)CC[C@@]3(C)CC[C@]2(C)C[C@H]2[C@@H](C)CC[C@@H]12 | cell growth or viability | MTT | 72 h | 33 µM
COc1ccc(/N=N/C(=S)N2CCCCC2)cc1 | cell growth or viability | resazurin | 48 h | > 50 µM
CC(C)c1cccc(C(C)C)c1[N+]#[C][Pd-]([Cl])([Cl])=[C](Nc1cccc(CN[C](Nc2c(C(C)C)cccc2C(C)C)=[Au][Cl])c1)Nc1c(C(C)C)cccc1C(C)C | cell growth or viability |  |  | > 100 µM
COc1cc(C2Oc3ccc(C=C4Oc5cc(O)ccc5C4=O)cc3OC2CO)cc(OC)c1O (stereo not drawn) | cell growth or viability | MTT | 72 h | 63.2 µM
C[C@]12CC/C(=N\OCCN3CCCCC3)C=C1CCC1C2CC[C@]2(C)/C(=C/c3ccccn3)CCC12 (stereo partly drawn) | cell growth or viability | MTT | 72 h | > 100 µM
Oc1ccccc1-c1nn(-c2ccccc2)[n+](-c2ccccc2)n1 | cell growth or viability | resazurin | 72 h | > 900 µM
Cc1cc(C)c(N=[C](NCc2ccc(N)cc2)[AuH][Cl])c(C)c1 | cell growth or viability |  |  | > 100 µM
c1ccc(N=NC(=NNc2ccccn2)c2ccccc2)cc1 | cell growth or viability | resazurin | 72 h | < 30 µM
Cc1cc(C)c([N+]#[C][Pt-]([Cl])([Cl])=[C](Nc2cccc(CN[C](NC(C)(C)C)=[Au][Cl])c2)Nc2c(C)cc(C)cc2C)c(C)c1 | cell growth or viability |  |  | > 100 µM
C[C@]12CC/C(=N/O)C=C1CCC1C2CC[C@]2(C)/C(=C/c3ccccn3)CCC12 (stereo partly drawn) | cell growth or viability | MTT | 72 h | > 100 µM
Cn1c2ccc(Cl)c(=O)c-2nc2ccccc21 | cell growth or viability | CCK-8 | 72 h | 4.41 µM
COc1ccc(/N=N/C(=S)N2CCN(C)CC2)cc1 | cell growth or viability | resazurin | 48 h | > 50 µM
CC(C)c1cccc(C(C)C)c1[N+]#[C][Pt-]([Cl])([Cl])=[C](Nc1ccc(CN[C](NC(C)(C)C)=[Au][Cl])cc1)Nc1c(C(C)C)cccc1C(C)C | cell growth or viability |  |  | > 100 µM

Structure (SMILES) | read-out | method | time | IC50
CN(C)CCO/N=C1/C=C2CCC3C(CC[C@]4(C)/C(=C/c5ccccn5)CCC34)[C@@]2(C)CC1 (stereo partly drawn) | cell growth or viability | MTT | 72 h | > 100 µM
C=C(C)[C@H]1CC[C@@]2(C)CC[C@]3(C)C[C@H]4[C@@H](C)CC[C@H]4/C(C)=C\C[C@H]3[C@H]12 | cell growth or viability | MTT | 72 h | > 500 µM
CC(C)=CCn1c2cccc(=O)c-2nc2ccccc21 | cell growth or viability | CCK-8 | 72 h | 0.87 µM
CCN(CC)CCO/N=C1/C=C2CCC3C(CC[C@]4(C)/C(=C/c5ccccn5)CCC34)[C@@]2(C)CC1 (stereo partly drawn) | cell growth or viability | MTT | 72 h | 86.4 µM
CC(C)c1cccc(C(C)C)c1[N+]#[C][Pt-]([Cl])([Cl])=[C](Nc1ccc(CN[C](Nc2c(C(C)C)cccc2C(C)C)=[Au][Cl])cc1)Nc1c(C(C)C)cccc1C(C)C | cell growth or viability |  |  | > 100 µM
Cn1ccn(N=Cc2ccccc2SSc2ccccc2C=Nn2ccn(C)c2=S)c1=S | cell growth or viability | MTT | 72 h | 24 µM
Oc1ccccc1-n1nc(-c2ccccc2)n[n+]1-c1ccccc1 | cell growth or viability | resazurin | 72 h | 330 µM
C[C@]12CC[C@@H]3c4ccc(O)cc4CC[C@H]3[C@@H]1CC[C@@]2(O)c1cn(CC(=O)c2ccc(F)cc2)nn1 | cell growth or viability | resazurin | 72 h | > 52.5 µM
Oc1ccccc1C(N=Nc1ccccc1)=NNc1ccccn1 | cell growth or viability | resazurin | 72 h | < 30 µM
CC1=C(Cn2c3ccc(Br)c(=O)c-3nc3ccccc32)CCC(C)(C)C1 | cell growth or viability | CCK-8 | 72 h | 0.6 µM
Cc1cc(C)c([N+]#[C][Pt-2]([Cl])([Cl])[C]#[N+]c2c(C)cc(C)cc2C)c(C)c1 | cell growth or viability |  |  | > 100 µM
O=C(c1ccccc1O)c1[nH]ccc1-n1cccc1C(=O)c1ccccc1O | cell growth or viability | resazurin | 24 h | 15 µg/mL
Cc1cc(C)c(N[C](NCc2ccc(N[C](Nc3c(C(C)C)cccc3C(C)C)=[Pt-]([Cl])([Cl])[C]#[N+]c3c(C(C)C)cccc3C(C)C)cc2)=[Au][Cl])c(C)c1 | cell growth or viability |  |  | > 100 µM
COC(=O)c1cnc(-c2cnccn2)cc1C(=O)OC.COC(=O)c1cnc(-c2cnccn2)cc1C(=O)OC.O=S(=O)([O-])C(F)(F)F.O=S(=O)([O-])C(F)(F)F.[Cu+2] | cell proliferation | MTT | 48 h | 130 µM
Cc1cc(C)c([N+]#[C][Pd-]([Cl])([Cl])=[C](Nc2cccc(CN[C](Nc3c(C(C)C)cccc3C(C)C)=[Au][Cl])c2)Nc2c(C)cc(C)cc2C)c(C)c1 | cell growth or viability |  |  | > 100 µM
CC1=CC2(C)C(=C(C)C3C4CC(C)CC(C)C4C4Oc5ccc(cc5)CC5(O)NC(=O)C(=C(O)C2C43)C5Nc2ncnc3c2ncn3C2OC(CO)C(O)C2O)C1C (stereo not drawn) | cell growth or viability | resazurin | 72 h | 21.2 µM

Some of these lines once more:
Structure (SMILES) | read-out | method | time | IC50
CC(C)c1cccc(C(C)C)c1[N+]#[C][Pt-]([Cl])([Cl])=[C](Nc1ccc(CN[C](NC(C)(C)C)=[Au][Cl])cc1)Nc1c(C(C)C)cccc1C(C)C | cell growth or viability |  |  | > 100 µM
CN(C)CCO/N=C1/C=C2CCC3C(CC[C@]4(C)/C(=C/c5ccccn5)CCC34)[C@@]2(C)CC1 (stereo partly drawn) | cell growth or viability | MTT | 72 h | > 100 µM
C=C(C)[C@H]1CC[C@@]2(C)CC[C@]3(C)C[C@H]4[C@@H](C)CC[C@H]4/C(C)=C\C[C@H]3[C@H]12 | cell growth or viability | MTT | 72 h | > 500 µM
CC(C)=CCn1c2cccc(=O)c-2nc2ccccc21 | cell growth or viability | CCK-8 | 72 h | 0.87 µM
CCN(CC)CCO/N=C1/C=C2CCC3C(CC[C@]4(C)/C(=C/c5ccccn5)CCC34)[C@@]2(C)CC1 (stereo partly drawn) | cell growth or viability | MTT | 72 h | 86.4 µM
